Measured values of several laboratories.
A part holds a random share of what one study measured.

Sample 1
Target: Sal-like protein 4, full length isoform B (SALL4, Homo sapiens, UniProt Q9UJQ4-2, residues 1-616)
Method: universal PBM
Form: double-stranded DNA, one strand shown
Medium: in vitro
Tested at: not given
Notes: 8-mer, flanks averaged, mean of replicates
Direction: higher = stronger binding
Residues (chain): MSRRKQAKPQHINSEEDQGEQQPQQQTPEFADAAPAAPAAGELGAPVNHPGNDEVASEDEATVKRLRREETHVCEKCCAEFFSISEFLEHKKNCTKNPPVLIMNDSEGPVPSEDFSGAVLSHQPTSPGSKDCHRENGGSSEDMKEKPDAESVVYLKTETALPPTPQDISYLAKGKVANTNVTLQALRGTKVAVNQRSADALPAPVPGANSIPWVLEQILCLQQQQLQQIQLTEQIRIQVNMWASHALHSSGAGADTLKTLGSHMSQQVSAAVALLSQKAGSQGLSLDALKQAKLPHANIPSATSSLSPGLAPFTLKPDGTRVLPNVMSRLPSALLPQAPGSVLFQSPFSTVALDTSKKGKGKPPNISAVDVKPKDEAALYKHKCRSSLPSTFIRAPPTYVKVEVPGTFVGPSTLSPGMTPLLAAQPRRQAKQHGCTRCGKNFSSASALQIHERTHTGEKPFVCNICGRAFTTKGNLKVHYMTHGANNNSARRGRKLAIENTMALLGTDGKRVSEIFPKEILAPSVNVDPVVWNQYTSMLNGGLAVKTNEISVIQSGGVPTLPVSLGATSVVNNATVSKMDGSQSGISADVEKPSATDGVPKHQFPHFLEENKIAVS
Sequence | E-score
CTACTATA | 0.253
AAGAGTGC | -0.149
ACAAAGAG | 0.00467
CGCCTATC | -0.0659
CCCAGACA | -0.11
CGTCCTGA | -0.151
AGCCTCAA | -0.18
ATGAGAAT | 0.11
GATACGAA | 0.106
GGCGACAA | -0.197
ACGGACTG | -0.161
TAGCCAGA | -0.00456
GCTTTGCC | -0.207
ACTTACAT | 0.158
AGTTCGGA | -0.194
TCTCACCA | 0.0259

Sample 2
Target: RNA binding protein fox-1 homolog 2, RRM domain, GST-SBP tag (RBFOX2, Homo sapiens, UniProt O43251-10, residues 100-194)
Method: RNA Bind-n-Seq
Form: RNA
Medium: in vitro
Tested at: 365 nM
Notes: natural RNA segment, single round, ends assumed
Relative to: no-protein control
Direction: higher = stronger binding
Construct (chain): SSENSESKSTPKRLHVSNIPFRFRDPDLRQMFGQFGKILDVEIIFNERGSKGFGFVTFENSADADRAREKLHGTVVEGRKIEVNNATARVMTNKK
Sequence | RBNS enrichment (R)
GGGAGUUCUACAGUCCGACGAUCUGUGGAGAAGGGGAAGGGAGGGACAGCUCACUGGUUCCUUCUGCAGUACCUCUGUGGUUAAAAAUGGAAACUGUUCUCCUCCCCAGCCCCACUCCCUGUUCCCUACCCAUUGGAAUUCUCGGGUGCCAA | 0.301
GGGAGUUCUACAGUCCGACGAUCAGGGACACCUGCCACCAUGGCCAGACCCUGACUGAAUUUCACAUUAAGGCUUUGGAAAGGAGCAAAUAAUAAUGGGAGAAUUAACUCCAAAACUUUGACCUGAAUCAUGUUGGAAUUCUCGGGUGCCAA | 0.486
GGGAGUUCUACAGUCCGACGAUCUCUUCGGAAGAACCCCAACUAUGAUCUUGAAAAAGUGGCUUCUAGAGACCCUGGCUGCAGCGGAAUUUUUUGUUUUUAGCAGGCUGUCCUGCCUGCUAUGAGGGGUGGAUUGGAAUUCUCGGGUGCCAA | 0.926
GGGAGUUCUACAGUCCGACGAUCUAGAAGCUGCAAACCUCUUCUCAGCCUCCUUCAGGCACCUCCUGUUUUCAUAAGCACCAUGAAGAAUGGUGUUUCCUAAAUGAAAAGUUCAGAUACUGCUGGUAAAGAAAUGGAAUUCUCGGGUGCCAA | 0.284
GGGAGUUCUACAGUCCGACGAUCGAAGAGAGGGACACUGUCGUGUCAGUAGCCGCAGGGUCCCCUUUAAGAUGUGUAUAUCGACACUAGGUCAGAAAGUGUAUGCGUUAUAAUAAAGUUCUGGUUCUAACUCCUGGAAUUCUCGGGUGCCAA | 0.575
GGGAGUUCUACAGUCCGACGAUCUGCCGUGCCGCCUGCACUCCUCAGGGCAGCCUCCCCCGGCUCUACGGGGGCCGCGUGGUGCCAUCCCCAGGGGGCAUGACCAGAUGCGUCCCAAGAUGUUGAUUUUUACUUGGAAUUCUCGGGUGCCAA | 0.412
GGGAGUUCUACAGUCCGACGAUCCCAGUGGCGUGGCCUCUGCCUCUAAGCGCUGAGCAUUGGGCCCCUUCCCCACCAGACCUUUGUAGCUCCUCCAGCCUCUGCAGAGACUCCCUUCACCUCGCACUUACUGCUGGAAUUCUCGGGUGCCAA | 0.729
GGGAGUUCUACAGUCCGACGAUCGACACAGCCUUUUUGAUCAUUUCUUUGAUGUGAAAAGCAUCUUUGGUUAUCAGUUAAAUUGAGGUGGACAUUAUUUCCCCAAUUUCACAACAGGAUUCACAUUGUUAAUUUGGAAUUCUCGGGUGCCAA | 0.333
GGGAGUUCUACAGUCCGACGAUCGGCUCUGAAUCCUAUGAAUCAAGGAAAUAACCCGUUCUCUGGAAGACACUGAAACAGGAGAGAGGGACUUCCGUCCACUGGGCAGGGUACAGAUGUGUCUCAGUUGUGAAUGGAAUUCUCGGGUGCCAA | 0.586
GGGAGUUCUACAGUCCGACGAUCGUUCCAUUUGACUGUUUGCAUUGAGAUUGCAAUGUGCGCAAUUUUUUUUGUAGUUGUGGCAUCUUGUUGACAUCGAAUAUGACUUUGAUAAUAAAUACCGGUUCCUGAAAUGGAAUUCUCGGGUGCCAA | 0.785
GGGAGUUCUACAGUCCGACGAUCGCCUCCCUAGCACCUCCCCCUAACCAAAUUCUCCCUGGACCCCAUUCUGAGCUCCCCAUCACCAUGGGAGGUGGGGCCUCAAUCUAAGGCCUUCCCUGUCAGAAGGGGGUUGGAAUUCUCGGGUGCCAA | 0.526
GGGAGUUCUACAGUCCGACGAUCAGUUUGUAAAUAAGGGUGUCUGUGCAGAUUUCCCCACAUUUAUUUGUAUAAAAAUUUCUCAUCUUUUCAGACUUUUUUGUAAACCGCCCCCGAGUUGUGAAAGCUGCGACUGGAAUUCUCGGGUGCCAA | 2.03

Sample 3
Target: Fragile X messenger ribonucleoprotein 1, C-terminal low-complexity region (Fmr1, Mus musculus, UniProt P35922)
Method: RNA Bind-n-Seq
Form: RNA
Medium: in vitro
Tested at: 200 nM
Notes: whole 134-nt RNA, ends assumed
Added: 150 mM LiCl
Relative to: input library
Direction: higher = stronger binding
Library: 7-deaza-guanosine replaces G
Sequence | log2 enrichment
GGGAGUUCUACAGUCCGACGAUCUCCUCAAGUCCUGUGCUACACAUCGUAUGUACCGAAUCGGUGGGUGGGGUGGAAAGUAUUAUGUUACGCCGUUCGGAUCUGCACUUCCAGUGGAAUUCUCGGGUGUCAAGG | 1.08
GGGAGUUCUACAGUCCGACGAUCUGGGAGGUGGAUUUUGUUUAUUUUUUUAGCUCAUUUCCAGGGGUGGGAAUUUUUUUUUAAUAUGUGUCAUGAAUAAAGUAGUUUUUGAAAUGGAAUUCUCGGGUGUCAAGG | 0.112
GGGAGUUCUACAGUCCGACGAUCGUCCUGUGCUACACAUCGUAUGUACCGAAUCAAACCCCCAAAUUUAAACCCCCCCAAAAAAGUAUUAUGUUACGCCGUUCGGAUCUGCACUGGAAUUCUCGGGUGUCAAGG | 1.46
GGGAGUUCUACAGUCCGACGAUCCUCAAGUCCUGUGCUACACAUCGUAUGUACCGAAUCGGGCCGGGCCGGCCGGGGAAAGUAUUAUGUUACGCCGUUCGGAUCUGCACUUCCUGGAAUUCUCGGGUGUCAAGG | 0.626
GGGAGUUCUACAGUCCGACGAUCAAGUCCUGUGCUACACAUCGUAUGUACCGAAUCGGCCCCCGGCCCCCGGCCCCCGGAAAGUAUUAUGUUACGCCGUUCGGAUCUGCACUUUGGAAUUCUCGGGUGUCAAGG | 0.227
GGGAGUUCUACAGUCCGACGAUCUCCUGUGCUACACAUCGUAUGUACCGAAUCGGGAAAAAGGGGAAAAAGGGAAAAAGGGGAAAGUAUUAUGUUACGCCGUUCGGAUCUGCAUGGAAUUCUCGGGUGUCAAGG | -0.619
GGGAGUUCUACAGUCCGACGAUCUGGUGGACCCGCAGCAGCUGGGCAUGUUCACGGAGGGCGAGCUGAUGUCGGUGGGUAUGGACACGUUCAUCCACCGCAUCGACUCCACCGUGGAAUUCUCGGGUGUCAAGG | -3.12
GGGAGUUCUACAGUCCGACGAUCUAUCUUUAGAGGAGGAUCUGAUGGAUAUGGCAGUGGACGUGGAUUUGGGGAUGGCUAUAAUGGGUAUGGAGGAGGACCUGGAGGUGGCAAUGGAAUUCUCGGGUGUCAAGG | 0.0452
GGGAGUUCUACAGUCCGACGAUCGUCCUGUGCUACACAUCGUAUGUACCGAAUCAAACCCAAAUUUUUAAAUUUUUUUAAAAAAGUAUUAUGUUACGCCGUUCGGAUCUGCACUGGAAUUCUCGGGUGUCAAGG | -1.42
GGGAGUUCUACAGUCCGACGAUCGUCCUGUGCUACACAUCGUAUGUACCGAAUCGGGGUUUUUUUGGGGUGGGGUUUGGGGAAAGUAUUAUGUUACGCCGUUCGGAUCUGCACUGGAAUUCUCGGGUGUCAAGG | -0.0373
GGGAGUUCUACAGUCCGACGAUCUGGGAGGUGGAUUUUGUUUAUUUUUUUAGCUCAUUUCCAGGGGUGGGAAUUUUUUUUUAGUAUGUGUCAUGAAUAAAGUUGUUUUUGAAAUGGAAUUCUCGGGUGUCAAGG | 0.756

Sample 4
Target: PABPC1L2, full length, GST fusion (mouse, UniProt A0ABA7IW68)
Method: RNAcompete
Form: RNA
Medium: in vitro
Tested at: 20 nM
Notes: 7-mer, probes averaged, single round
Relative to: mean of 7-mers
Direction: higher = stronger binding
Target sequence (chain): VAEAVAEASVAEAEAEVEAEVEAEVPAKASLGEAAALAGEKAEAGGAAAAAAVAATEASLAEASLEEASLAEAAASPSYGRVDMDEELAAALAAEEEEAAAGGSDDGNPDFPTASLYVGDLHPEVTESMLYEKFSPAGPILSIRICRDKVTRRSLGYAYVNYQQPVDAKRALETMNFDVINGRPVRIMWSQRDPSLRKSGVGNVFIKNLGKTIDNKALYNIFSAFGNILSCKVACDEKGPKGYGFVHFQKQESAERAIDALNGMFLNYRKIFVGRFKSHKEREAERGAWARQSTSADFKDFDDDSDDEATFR
Sequence | 7-mer Z-score
UUAGUAA | 0.000733
UAUCAAU | -0.11
UUUAUGC | -0.142
CACUUCG | -0.36
AUGCCUG | -0.0573
GCCGGUG | -0.322
AAUAGCG | 0.494
GAUUCGC | -0.421
CGCUGUA | -0.309
CGGACAC | -0.0699
GAGUGCA | 0.046
GGGGCGA | 0.606
GGUUGCA | -0.0808
UAACAAA | 1.04
GCCCAGC | -0.362
ACAGAAC | 0.158
UGAGUCU | -0.362
UUACUAG | -0.151
GGUAGAU | 0.0352
UCCCCGG | -0.479
UAUACGA | -0.164
